Measured values from different studies.
“And” joins repeats or separate records; there may be more than shown. Numbers after ± are the reported error.

`CCc1cnc(NC(=O)c2cc(S(=O)(=O)N3CCOCC3)ccc2N(C)C2CCCC2)s1` has a tumour volume of 186 ± 16 mm³ (mouse HCC827-GR xenograft; ip, 10 mg/kg, 360 h).
For `CC1(C)CN(CCCCC(=O)N[C@@H](CCCCNC(=O)CCCCCCC(=O)NCCCC[C@H](NC(=O)N[C@@H](CCC(=O)O)C(=O)O)C(=O)O)C(=O)O)CC[N]2CC(C)(C)[S][Tc]2(=[O])[S]1` (stereo partly drawn) [technetium-99m labelled], tumour uptake read “decreased” (SPECT/PET imaging; mouse, subcutaneous LNCaP tumour, tumour; dose not given, 4 h post-injection).
`CN[C@@H](C)C(=O)N[C@H]1CN(C(=O)CC(C)C)CC[C@H]2CC[C@@H](C(=O)NC(c3ccccc3)c3ccccc3)N2C1=O`: “tumour growth rate constant” 0.0068 h⁻¹ (tumour growth inhibition model; mouse, MDA-MB-231 xenograft).
Under tumour uptake, `CC1(C)CN(CCCCC(=O)N[C@H](Cc2ccccc2)C(=O)N[C@H](Cc2ccccc2)C(=O)N[C@H](CCCCNC(=O)CCCCCCC(=O)NCCCC[C@H](NC(=O)N[C@@H](CCC(=O)O)C(=O)O)C(=O)O)C(=O)O)CC[N]2CC(C)(C)[S][Tc]2(=[O])[S]1` (stereo partly drawn) [technetium-99m labelled] is recorded as “decreased” (SPECT/PET imaging; mouse, subcutaneous LNCaP tumour, tumour; dose not given, 4 h post-injection).
For `Cc1nc(N(Cc2ccccc2)c2ccc3c(c2)/C(=C/c2ccccc2)C(=O)N3Cc2ccccc2)c2ccccc2n1` (mixture of isomers), “tumour weight reduction” read about 80.3% (mouse LLC syngeneic tumour; ip, 30 mg/kg, 14 days; reference: vehicle).
`COc1ccc(F)cc1C(=O)NCc1ccc(-c2nn([C@@H](C)C(F)(F)F)c(N)c2C(N)=O)cc1` has a tumour regression of -49% (TMD8 xenograft, mouse; 30 mg/kg twice daily, day 18).
With `COc1cc(N2CCC(N3CCN(C)CC3)CC2)ccc1Nc1ncc(Cl)c(Nc2ccccc2P(C)(C)=O)n1` the tumour volume was 567 mm3 and 494 mm3 and 683 mm3 and 438 mm3 and 387 mm3 (NCI-H3122 xenograft, female nude mouse; intraperitoneal, 10 mg/kg, every other day).
For `C[C@]12CC[C@@H]3c4ccc(O)cc4C[C@@H](CCCCCCCCC[S+]([O-])CCCC(F)(F)C(F)(F)F)[C@H]3[C@@H]1CC[C@@H]2O` (stereo partly drawn), the tumour volume was 68.1 mm3 and 39 mm3 and 95.2 mm3 and 73.1 mm3 and 39.5 mm3 and 45.6 mm3 and 56.4 mm3 (female nude mouse LCC2 xenograft; 2.0 mg/kg, day 7, tamoxifen-resistant).
For `O=C(Nc1cccc2cccnc12)c1cnccn1`, the tumour volume was 259 ± 38 mm³ (mouse MIA PaCa-2 xenograft; intraperitoneal, 10 mg/kg days 1-9 then 20 mg/kg days 10-44, day 44, five times weekly).
`COc1c(Cl)cccc1Nc1c(-c2ccncc2OC[C@@H]2COCCO2)[nH]c2c1C(=O)NCC2`: “tumour weight T/C” 0.22 (mouse, NSCLC PDX sample A; oral, 10 mg/kg once daily, day 27, unit not given; reference: vehicle).
`C=CC(=O)Nc1cc(Nc2nccc(Nc3cc(Cl)c(F)cc3C(C)(C)O)n2)c(OC)cc1N1CC[C@@H](N(C)C)C1`: “tumour growth inhibition” 117% (NCI-H2073 EGFR SVD knock-in, BALB/c nude mouse, NCI-H2073 xenograft; 50 mg/kg twice daily, 21 days).
`COc1cc2ncnc(Nc3ccc(F)c(Cl)c3)c2cc1OCCCN1CCOCC1` — result for “tumour weight reduction”: about 59.1% (mouse LLC syngeneic tumour; ip, 50 mg/kg, 14 days; reference: vehicle).
`Cl.O=C(c1cc(Cc2n[nH]c(=O)c3ccccc23)ccc1F)N1CC(CNC2CC2)C1` — result for “tumour growth inhibition”: 43.8% (BALB/c nude mouse, MX1 xenograft; oral, 12.5 mg/kg once daily, 23 days).
`C=CCn1c(=O)c2cnc(Nc3ccc(N4CCN(C)CC4)cc3)nc2n1-c1ccc2c(n1)[C@@](O)(CC)CC2`: “tumour volume difference” -94.9 ± 6.6 mm3 (NOD/SCID mouse, A-427 xenograft; oral, 80 mg/kg, 5 d on 2 d off ×4, day 29; reference: vehicle).
`COCc1cc(C(=O)Nc2cc([C@H]3CC[C@@H](OC(=O)NC(C)C)C3)[nH]n2)n(C)n1` — result for “tumour growth inhibition”: 61% (OVCAR-3 xenograft, NSG mouse; oral twice daily, middle dose of escalation).

For quick reference, copied from above:
With `COc1cc(N2CCC(N3CCN(C)CC3)CC2)ccc1Nc1ncc(Cl)c(Nc2ccccc2P(C)(C)=O)n1` the tumour volume was 567 mm3 and 494 mm3 and 683 mm3 and 438 mm3 and 387 mm3 (NCI-H3122 xenograft, female nude mouse; intraperitoneal, 10 mg/kg, every other day).
`CCc1cnc(NC(=O)c2cc(S(=O)(=O)N3CCOCC3)ccc2N(C)C2CCCC2)s1` has a tumour volume of 186 ± 16 mm³ (mouse HCC827-GR xenograft; ip, 10 mg/kg, 360 h).
